Experimental data from different studies.
Parts stem from different laboratories: compare values within a part only. Values joined by “and” are separate records of one study, mostly repeats; a detail may differ.
Sequence of UniProt Q12851 (whole entry, looked up): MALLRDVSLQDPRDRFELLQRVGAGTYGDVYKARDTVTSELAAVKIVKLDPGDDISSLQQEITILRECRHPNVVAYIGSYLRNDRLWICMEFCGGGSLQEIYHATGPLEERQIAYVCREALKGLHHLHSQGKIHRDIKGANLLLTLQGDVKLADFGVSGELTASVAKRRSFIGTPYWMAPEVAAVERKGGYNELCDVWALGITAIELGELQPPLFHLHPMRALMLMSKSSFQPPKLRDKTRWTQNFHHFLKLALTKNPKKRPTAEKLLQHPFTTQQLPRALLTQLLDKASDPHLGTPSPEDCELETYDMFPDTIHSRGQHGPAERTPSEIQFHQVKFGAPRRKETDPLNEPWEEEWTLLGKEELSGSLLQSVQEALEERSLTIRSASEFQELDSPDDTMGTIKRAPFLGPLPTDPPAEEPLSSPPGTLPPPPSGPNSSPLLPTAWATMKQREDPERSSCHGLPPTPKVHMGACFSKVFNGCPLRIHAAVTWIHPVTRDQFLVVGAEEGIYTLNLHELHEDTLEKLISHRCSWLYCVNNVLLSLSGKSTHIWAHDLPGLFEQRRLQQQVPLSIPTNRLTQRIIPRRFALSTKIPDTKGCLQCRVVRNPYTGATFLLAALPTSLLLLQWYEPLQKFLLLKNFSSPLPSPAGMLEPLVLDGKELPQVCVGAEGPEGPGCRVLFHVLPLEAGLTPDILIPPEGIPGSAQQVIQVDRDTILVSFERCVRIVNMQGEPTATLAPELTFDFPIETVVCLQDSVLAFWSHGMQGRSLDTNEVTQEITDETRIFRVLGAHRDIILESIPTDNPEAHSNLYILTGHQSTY
Sequence of UniProt P48729 (whole entry, looked up): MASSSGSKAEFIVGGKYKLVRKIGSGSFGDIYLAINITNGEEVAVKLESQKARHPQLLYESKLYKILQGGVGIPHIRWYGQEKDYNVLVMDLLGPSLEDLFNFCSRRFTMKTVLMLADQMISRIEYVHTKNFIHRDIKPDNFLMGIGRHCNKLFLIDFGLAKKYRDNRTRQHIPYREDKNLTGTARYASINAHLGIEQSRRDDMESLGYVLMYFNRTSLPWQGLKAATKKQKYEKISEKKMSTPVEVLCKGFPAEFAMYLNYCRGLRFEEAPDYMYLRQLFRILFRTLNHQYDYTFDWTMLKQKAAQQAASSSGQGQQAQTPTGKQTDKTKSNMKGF
Sequence of UniProt P62344 (whole entry, looked up): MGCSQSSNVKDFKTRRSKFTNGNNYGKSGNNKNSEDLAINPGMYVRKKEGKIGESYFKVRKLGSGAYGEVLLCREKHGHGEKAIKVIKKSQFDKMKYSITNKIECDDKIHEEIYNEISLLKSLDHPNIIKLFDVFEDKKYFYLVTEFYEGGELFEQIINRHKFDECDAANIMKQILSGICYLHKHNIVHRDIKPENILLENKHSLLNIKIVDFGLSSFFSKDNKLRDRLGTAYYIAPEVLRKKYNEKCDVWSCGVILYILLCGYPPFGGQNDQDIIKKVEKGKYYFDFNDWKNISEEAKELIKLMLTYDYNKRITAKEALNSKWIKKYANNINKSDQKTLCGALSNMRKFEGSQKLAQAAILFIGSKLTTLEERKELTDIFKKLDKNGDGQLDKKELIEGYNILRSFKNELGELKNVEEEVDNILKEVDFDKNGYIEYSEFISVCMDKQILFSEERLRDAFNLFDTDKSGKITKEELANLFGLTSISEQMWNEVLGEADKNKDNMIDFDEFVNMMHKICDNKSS
Sequence of UniProt P50750 (whole entry, looked up): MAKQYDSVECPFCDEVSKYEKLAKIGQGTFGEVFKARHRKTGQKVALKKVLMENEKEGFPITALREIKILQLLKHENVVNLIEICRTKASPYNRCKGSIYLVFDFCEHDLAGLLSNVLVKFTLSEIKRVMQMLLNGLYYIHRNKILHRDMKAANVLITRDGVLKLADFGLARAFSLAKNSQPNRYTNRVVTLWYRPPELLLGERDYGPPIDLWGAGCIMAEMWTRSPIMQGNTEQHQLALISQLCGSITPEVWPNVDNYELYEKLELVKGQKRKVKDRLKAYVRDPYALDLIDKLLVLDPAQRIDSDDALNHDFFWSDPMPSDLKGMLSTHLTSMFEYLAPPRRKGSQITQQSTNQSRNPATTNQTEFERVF
Sequence of UniProt P41743 (whole entry, looked up): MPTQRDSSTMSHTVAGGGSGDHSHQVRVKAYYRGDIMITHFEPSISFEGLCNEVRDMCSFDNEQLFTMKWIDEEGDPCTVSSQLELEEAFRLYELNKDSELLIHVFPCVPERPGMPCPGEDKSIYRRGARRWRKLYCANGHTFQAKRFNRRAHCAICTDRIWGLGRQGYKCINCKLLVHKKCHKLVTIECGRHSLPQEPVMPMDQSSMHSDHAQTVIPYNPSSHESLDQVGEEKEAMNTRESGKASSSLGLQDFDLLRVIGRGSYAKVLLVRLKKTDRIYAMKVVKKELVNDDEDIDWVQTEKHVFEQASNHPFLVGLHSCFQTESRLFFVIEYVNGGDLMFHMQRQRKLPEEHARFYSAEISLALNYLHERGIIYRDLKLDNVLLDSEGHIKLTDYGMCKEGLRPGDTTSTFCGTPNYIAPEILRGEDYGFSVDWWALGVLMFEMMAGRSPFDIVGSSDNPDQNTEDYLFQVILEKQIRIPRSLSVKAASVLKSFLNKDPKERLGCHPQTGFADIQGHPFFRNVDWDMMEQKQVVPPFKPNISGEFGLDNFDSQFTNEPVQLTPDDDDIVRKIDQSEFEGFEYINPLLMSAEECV
Sequence of UniProt Q9BYT3 (whole entry, looked up): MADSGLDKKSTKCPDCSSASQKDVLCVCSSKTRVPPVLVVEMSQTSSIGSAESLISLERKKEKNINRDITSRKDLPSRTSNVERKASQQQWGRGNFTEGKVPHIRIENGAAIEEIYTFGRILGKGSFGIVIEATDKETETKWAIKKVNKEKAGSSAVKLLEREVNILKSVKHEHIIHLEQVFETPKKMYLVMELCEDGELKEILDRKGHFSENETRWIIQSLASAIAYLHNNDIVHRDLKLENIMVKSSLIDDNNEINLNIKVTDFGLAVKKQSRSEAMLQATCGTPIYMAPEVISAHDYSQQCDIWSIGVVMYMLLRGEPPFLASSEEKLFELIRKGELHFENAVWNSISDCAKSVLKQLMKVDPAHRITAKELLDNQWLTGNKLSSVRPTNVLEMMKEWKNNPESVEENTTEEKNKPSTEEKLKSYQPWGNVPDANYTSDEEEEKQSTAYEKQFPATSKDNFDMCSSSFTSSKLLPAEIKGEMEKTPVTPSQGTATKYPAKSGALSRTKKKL
Sequence of UniProt Q9NWZ3 (whole entry, looked up): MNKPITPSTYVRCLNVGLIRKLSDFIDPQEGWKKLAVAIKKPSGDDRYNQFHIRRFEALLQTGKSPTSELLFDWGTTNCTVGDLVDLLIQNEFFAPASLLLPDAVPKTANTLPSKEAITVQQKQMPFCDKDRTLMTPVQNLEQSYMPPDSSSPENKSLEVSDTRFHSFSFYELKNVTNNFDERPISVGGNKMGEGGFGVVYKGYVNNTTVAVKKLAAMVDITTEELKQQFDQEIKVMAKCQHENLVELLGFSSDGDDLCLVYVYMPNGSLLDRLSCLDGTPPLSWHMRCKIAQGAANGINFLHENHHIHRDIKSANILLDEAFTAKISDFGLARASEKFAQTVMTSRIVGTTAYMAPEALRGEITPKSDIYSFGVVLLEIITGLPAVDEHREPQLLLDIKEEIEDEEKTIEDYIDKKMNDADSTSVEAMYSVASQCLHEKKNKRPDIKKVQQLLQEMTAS
Sequence of UniProt Q9Y243 (whole entry, looked up): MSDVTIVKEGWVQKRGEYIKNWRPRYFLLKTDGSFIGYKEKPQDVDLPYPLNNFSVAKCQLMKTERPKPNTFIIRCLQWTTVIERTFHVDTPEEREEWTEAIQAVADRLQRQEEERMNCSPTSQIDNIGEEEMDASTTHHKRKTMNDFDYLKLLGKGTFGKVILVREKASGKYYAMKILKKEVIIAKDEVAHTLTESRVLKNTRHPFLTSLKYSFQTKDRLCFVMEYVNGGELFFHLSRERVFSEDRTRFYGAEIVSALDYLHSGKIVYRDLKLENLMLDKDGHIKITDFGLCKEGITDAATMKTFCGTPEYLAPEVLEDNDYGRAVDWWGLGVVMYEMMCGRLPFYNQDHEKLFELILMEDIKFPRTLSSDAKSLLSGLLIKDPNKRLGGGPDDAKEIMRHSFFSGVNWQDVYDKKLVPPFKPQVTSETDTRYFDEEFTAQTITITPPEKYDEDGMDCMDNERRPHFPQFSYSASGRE

Series 1
Target: Eukaryotic initiation factor 4A-III (Homo sapiens, UniProt P38919)
Sequence of UniProt P38919 (whole entry, looked up): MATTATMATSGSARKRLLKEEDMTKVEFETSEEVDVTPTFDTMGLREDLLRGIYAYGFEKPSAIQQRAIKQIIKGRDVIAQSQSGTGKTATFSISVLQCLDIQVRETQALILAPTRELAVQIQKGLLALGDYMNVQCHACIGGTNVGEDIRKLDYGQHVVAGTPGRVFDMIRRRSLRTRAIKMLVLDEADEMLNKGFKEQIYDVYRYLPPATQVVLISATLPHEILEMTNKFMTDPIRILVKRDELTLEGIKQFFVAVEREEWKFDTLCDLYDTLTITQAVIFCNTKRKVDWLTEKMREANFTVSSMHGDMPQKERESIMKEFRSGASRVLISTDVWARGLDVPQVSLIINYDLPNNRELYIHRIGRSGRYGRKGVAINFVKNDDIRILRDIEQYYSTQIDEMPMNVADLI
Effect on: RNA clamping
Method: fluorescence polarization
Concentration: concentration not given
Setting: mean of two replicates
Added: FAM-labelled poly r(AG)8 RNA
Endpoint: fluorescence polarization change
COC(=O)[C@@H]1[C@@H](c2ccccc2)[C@]2(c3ccc(Br)cc3)Oc3cc(OC)cc(OC)c3[C@@]1(O)C2(O)O: 4.4 mP
COC(=O)[C@@H]1[C@@H](c2ccccc2)C2(c3ccc(OC)cc3)C(=O)C1(O)c1ccccc1N2C (stereo partly drawn): -6.4 mP
CCOc1ccccc1-c1nc2c(c(=O)[nH]1)[C@@H](c1ccccc1)[C@]1(c3ccc(OC)cc3)Oc3cc(OC)cc(OC)c3[C@]21O: 40 mP
COc1ccc([C@@]23Oc4cc(OC)cc(OC)c4[C@]2(O)c2nc(-c4ccc(OCc5ccccc5)cc4)[nH]c(=O)c2[C@H]3c2ccccc2)cc1: 2.1 mP
C#CCOc1nc(-c2ccccc2)nc2c1[C@@H](c1ccccc1)[C@]1(c3ccc(OC)cc3)Oc3cc(OC)cc(OC)c3[C@]21OCC#C: 11.6 mP
COCC1=N[C@@]2(O)[C@H](C(=O)OC)[C@@H](c3ccccc3)[C@]3(c4ccc(OC)cc4)Oc4cc(OC)cc(OC)c4[C@]23N1: 42.8 mP and 31.4 mP
COC(=O)[C@@H]1[C@@H](c2ccccc2)[C@@]2(c3ccc(Br)cc3)C(=O)[C@]1(O)c1c(OC)cc(OC)cc1N2C: 3 mP
COc1ccc([C@@]23Oc4cc(OC)cc(OC)c4[C@@]24NC(C2CC2)=N[C@@]4(O)[C@H](C(=O)N(C)OC)[C@H]3c2ccccc2)cc1: 49.6 mP
COC(=O)[C@H]1[C@H](c2ccccc2)[C@]2(c3ccc(OC)cc3)Oc3cc(OC)cc(OC)c3[C@@]1(O)C2O (stereo partly drawn): -1.9 mP
COC(=O)[C@@H]1[C@@H](c2ccccc2)[C@]2(c3ccc(OC)cc3)Oc3cc(OC)cc(OC)c3[C@@]23N=C(C2CC2)N[C@@]13O: 65.5 mP and 30 mP
COc1ccc([C@@]23Oc4cc(OC)cc(OC)c4[C@]2(O)c2nc(Cc4ccccc4)[nH]c(=O)c2[C@H]3c2ccccc2)cc1: 16.4 mP

Series 2
SMILES: CCn1cnc2c(Nc3cccc(Cl)c3)nc(N[C@H]3CCCC[C@H]3N)nc21
Effect on: enzyme activity
Mode: inhibitor
Concentration: 0.5 µM
Endpoint: remaining activity
PRKCI (Homo sapiens, UniProt P41743); baseline: control: 99.7%
CHEK1 (Homo sapiens, UniProt O14757); baseline: control: 85.8%
MAP2K6 (Homo sapiens, UniProt P52564); baseline: control: 100%
MAPK13 (Homo sapiens, UniProt O15264); baseline: control: 102%
KIT (Homo sapiens, UniProt P10721); baseline: control: 101%
LYN (Homo sapiens, UniProt P07948); baseline: control: 67.3%
LRRK2 (Homo sapiens, UniProt Q5S007); baseline: control: 70%
CSNK2A1 (Homo sapiens, UniProt P68400); baseline: control: 84.2%
PRKG1 (Homo sapiens, UniProt Q13976); baseline: control: 91.4%
PLK2 (Homo sapiens, UniProt Q9NYY3); baseline: control: 95.8%
NEK4 (Homo sapiens, UniProt P51957); baseline: control: 96.8%
IRAK4 (Homo sapiens, UniProt Q9NWZ3); baseline: control: 94.8%
CLK1 (Homo sapiens, UniProt P49759): 89.3%
STK33 (Homo sapiens, UniProt Q9BYT3); radiometric: 88.9%
WNK2 (Homo sapiens, UniProt Q9Y3S1); baseline: control: 94.1%
PRKCD (Homo sapiens, UniProt Q05655); baseline: control: 91.2%
CSNK1A1 (Homo sapiens, UniProt P48729); baseline: control: 98.7%
MAP3K10 (Homo sapiens, UniProt Q02779); baseline: control: 92.9%
MAP4K2 (Homo sapiens, UniProt Q12851); baseline: control: 87.4%
BTK (Homo sapiens, UniProt Q06187); baseline: control: 82.5%
MKNK2 (Homo sapiens, UniProt Q9HBH9); baseline: control: 93.5%
MAPK12 (Homo sapiens, UniProt P53778); baseline: control: 96.6%
EPHA5 (Homo sapiens, UniProt P54756); baseline: control: 73.9%
AKT3 (Homo sapiens, UniProt Q9Y243); baseline: control: 95.8%
Cyclin-dependent kinase 9, with cyclin T1 (CDK9, Homo sapiens, UniProt P50750); baseline: control: 53.7%

Series 3
Target: Calcium/calmodulin-dependent protein kinase type II subunit alpha (CAMK2A, Homo sapiens, UniProt Q9UQM7)
Sequence of UniProt Q9UQM7 (whole entry, looked up): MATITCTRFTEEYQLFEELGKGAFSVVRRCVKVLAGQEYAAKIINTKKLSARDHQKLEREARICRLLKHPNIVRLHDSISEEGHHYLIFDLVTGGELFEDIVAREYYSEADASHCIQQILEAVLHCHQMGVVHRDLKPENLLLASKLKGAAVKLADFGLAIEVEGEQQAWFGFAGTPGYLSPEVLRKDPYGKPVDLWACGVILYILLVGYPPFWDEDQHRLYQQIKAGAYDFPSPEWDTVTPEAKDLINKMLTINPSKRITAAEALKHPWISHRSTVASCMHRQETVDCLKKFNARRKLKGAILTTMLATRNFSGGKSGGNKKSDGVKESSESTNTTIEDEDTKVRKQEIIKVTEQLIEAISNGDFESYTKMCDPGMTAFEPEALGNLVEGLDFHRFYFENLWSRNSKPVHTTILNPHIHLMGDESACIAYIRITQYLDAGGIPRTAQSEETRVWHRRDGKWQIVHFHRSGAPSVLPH
Effect on: enzyme activity
Mode: inhibitor
Concentration: 10 µM
Endpoint: inhibition
S=C=NCc1ccccc1: -6%
CN1CCc2cc3c(cc2[C@H]1[C@@H]1OC(=O)c2c1ccc1c2OCO1)OCO3: -17%
C/C=C(\C)C(=O)N[C@@H](c1ccccc1)[C@@H](O)C(=O)O[C@H]1C[C@@]2(O)[C@@H](OC(=O)c3ccccc3)[C@@H]3[C@]4(OC(C)=O)CO[C@@H]4C[C@H](O)[C@@]3(C)C(=O)[C@H](OC(C)=O)C(=C1C)C2(C)C: 1%
C=C(C)C(=O)O[C@H]1[C@@H]2[C@H](C)C(=O)O[C@@H]2C[C@@H](C)[C@@H]2C=CC(=O)[C@]21C: 18%
CC1=C2C[C@H]3[C@@H](CC=C4C[C@@H](O)CC[C@@]43C)[C@@H]2CC[C@]12O[C@@H]1C[C@H](C)CN[C@H]1[C@H]2C: 8%
O=C1CCC[C@@H]2[C@H]3CCCN4CCC[C@@H](CN12)[C@H]34: 6%
OCCOc1ccccc1: 2%

Series 4
Cell line: mouse MPNST tumor cells
Method: high-content nuclear imaging
Item: cell number
Concentration: 10 µM
Time: 12 h
Setting: mean of 2 replicates
Baseline: plate mean
Reading: higher = more cells
Endpoint: nuclei count
COc1ccc2[nH]c(-c3ccccc3)c(CCN(C)C)c2c1: 1.21 z-score
CC(=O)O[C@H]1CC[C@@]2(C)C(=CC[C@@H]3[C@@H]2CC[C@]2(C)C(=O)CC[C@@H]32)C1: 0.512 z-score
CCCN1CCC[C@@H]2Cc3n[nH]cc3C[C@H]21: 1.02 z-score
Cc1cc(SCc2sc(-c3ccc(C(F)(F)F)c(F)c3)nc2C)ccc1OCC(=O)O: 1.53 z-score
N#Cc1cn([C@@H]2O[C@H](CO)[C@@H](O)[C@H]2O)c2ncnc(N)c12: -4.57 z-score
Cc1cccc(C)c1NC1=NCCCS1: 1.03 z-score
CN1C(=O)C(Cc2ccc3ccccc3c2)N=C(c2ccc(O)cc2)c2cc(Cl)ccc21 (stereo not drawn): 4.1 z-score

Single results of other studies
O[C@]1(C(F)(F)F)CCCC[C@H]1Nc1ccc(F)cc1  inhibition (HTR2C (Homo sapiens, UniProt P28335); binding, radioligand binding; 10 µM): 23.4%
CC(C)(O)c1cncc(-c2nc3ccc(F)cc3n2C2CC2)c1  remaining binding (CDPK1 (Plasmodium falciparum, UniProt P62344); cell-free assay, competition with immobilised ligand; 1 µM): 100%
CN1CCN(c2cnc3c(C4CCN(C(=O)c5ccc(OC(F)(F)F)cc5N)CC4)ncnc3c2)CC1  remaining binding (pknB (Mycobacterium tuberculosis, UniProt P9WI81); cell-free assay, competition with immobilised ligand; 1 µM): 97%
Cc1noc([C@H]2C[C@@H](c3ccc(C(F)(F)F)cc3)CN(C(=O)N3CCS(=O)(=O)C3)C2)n1  remaining binding (CRK2 (Plasmodium falciparum, UniProt P61075); cell-free assay, competition with immobilised ligand; 1 µM): 80%
